{"data": "Measurements gathered from unrelated publications", "note": "Each numbered part is a random draw from the data of one study; scales do not carry over between parts. Substitutions count along the parent as printed."}
{"data": "Series 1", "target": "Centromere-binding protein 1, full length, N-terminal tag (CBF1, Saccharomyces cerevisiae, UniProt P17106, residues 1-351)", "technique": "protein-binding microarray", "molecule type": "double-stranded DNA, one strand shown", "medium": "in vitro", "concentration": "0.8 µM", "setting": "whole 60-bp probe, no competitor", "reading": "higher = stronger binding", "all sequences stand within": "… GTCTTGATTCGCTTGACGCTGCTG", "chain of UniProt P17106 (whole entry, looked up)": "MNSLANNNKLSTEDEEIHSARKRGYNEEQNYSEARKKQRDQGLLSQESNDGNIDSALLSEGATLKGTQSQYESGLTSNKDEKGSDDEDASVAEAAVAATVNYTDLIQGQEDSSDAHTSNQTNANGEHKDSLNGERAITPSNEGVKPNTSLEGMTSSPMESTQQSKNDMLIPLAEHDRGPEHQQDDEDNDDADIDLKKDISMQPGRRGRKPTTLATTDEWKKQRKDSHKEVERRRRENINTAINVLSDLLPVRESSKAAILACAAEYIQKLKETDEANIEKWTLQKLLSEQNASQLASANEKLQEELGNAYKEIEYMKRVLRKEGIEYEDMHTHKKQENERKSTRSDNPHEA"}
{"Strand": "CTAATAGAGGCAGGTGGTGTTTCCTCGTGTCCGTTC", "fluorescence intensity [a.u.]": 621}
{"Strand": "TGTACGAAGCTATATAACGTGGTTATAGTAGTTAGG", "fluorescence intensity [a.u.]": 594}
{"Strand": "CTATAAATTTGAAATTACGTGTCACTTCGTTTTTTC", "fluorescence intensity [a.u.]": 502}
{"Strand": "GAAGTAGTGACTCATCTGACTATATTACCGGTTTAG", "fluorescence intensity [a.u.]": 580}
{"Strand": "CTAATACAGGTTGGTTAGGTGACGTTGGAGAAATTC", "fluorescence intensity [a.u.]": 508}
{"Strand": "GAATTTCGATCAATTCTCCTGATATTATTGAGTTAG", "fluorescence intensity [a.u.]": 498}
{"Strand": "CTAATCTATCTAAAAAGCGTGATTTTTCCCACGTTC", "fluorescence intensity [a.u.]": 659}
{"Strand": "TGTACGAAGCTATATAAGTCACGTATAGTAGTTAGG", "fluorescence intensity [a.u.]": 878}
{"data": "Series 2", "target": "Histone acetyltransferase KAT6A, winged helix 1, GST fusion (KAT6A, Homo sapiens, UniProt Q92794, residues 1-85)", "technique": "protein binding microarray", "molecule type": "double-stranded DNA, one strand shown", "medium": "in vitro", "concentration": "not given", "setting": "8-mer, flanks averaged, mean of 2 arrays, mostly near background", "reference": "not given", "reading": "higher = stronger binding", "Construct (chain)": "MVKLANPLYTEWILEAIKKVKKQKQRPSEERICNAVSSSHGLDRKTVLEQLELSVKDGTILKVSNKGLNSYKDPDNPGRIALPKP"}
{"Strand": "AGTGACGG", "E-score": 0.132}
{"Strand": "ATGCACGG", "E-score": 0.182}
{"Strand": "CGTATCAC", "E-score": 0.181}
{"Strand": "CACATCCA", "E-score": -0.094}
{"Strand": "GAGCTGTA", "E-score": -0.186}
{"Strand": "CTACTGCC", "E-score": 0.106}
{"data": "Series 3", "target": "ABI1, truncated, D143A, DHFR fusion (Arabidopsis thaliana)", "technique": "DHFR PCA, deep sequencing", "medium": "yeast", "setting": "methotrexate growth selection, single substitutions", "together with": "(+)-ABA 17 µM", "reference": "wild-type fitted maximum", "reading": "higher = stronger binding", "starting sequence": "PYL1, truncated, DHFR fusion (Arabidopsis thaliana); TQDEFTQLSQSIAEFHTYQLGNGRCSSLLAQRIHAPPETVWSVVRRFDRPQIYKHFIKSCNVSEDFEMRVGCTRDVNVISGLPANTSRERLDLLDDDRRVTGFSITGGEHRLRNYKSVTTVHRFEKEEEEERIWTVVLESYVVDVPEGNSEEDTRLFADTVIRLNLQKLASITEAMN; partner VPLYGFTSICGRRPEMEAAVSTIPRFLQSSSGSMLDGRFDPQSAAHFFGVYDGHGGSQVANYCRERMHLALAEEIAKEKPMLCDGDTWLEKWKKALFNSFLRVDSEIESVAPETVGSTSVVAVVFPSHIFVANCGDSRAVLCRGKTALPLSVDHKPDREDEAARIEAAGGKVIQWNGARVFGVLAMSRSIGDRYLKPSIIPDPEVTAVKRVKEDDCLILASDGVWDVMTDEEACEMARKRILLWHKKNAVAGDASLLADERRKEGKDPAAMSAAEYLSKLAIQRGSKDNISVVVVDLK"}
{"Substitution": "F103A", "relative binding score [%]": -10.9}
{"Substitution": "Q2I", "relative binding score [%]": 86.8}
{"Substitution": "R99N", "relative binding score [%]": 59.6}
{"Substitution": "R163C", "relative binding score [%]": 36.7}
{"Substitution": "G107R", "relative binding score [%]": 12.9}
{"Substitution": "Q167S", "relative binding score [%]": 87.2}
{"data": "Further values, each from its own experiment"}
{"Substance": "PhoQ, residues 284 288 289 292 302 303 NLSRDF", "target": "PhoP, residues 12 14 15 18 19 LYFRQ (Escherichia coli, UniProt P23836)", "assay": "Sort-seq, refers to: YFP reporter", "test system": "E. coli", "setting": "PhoQ-PhoP variant library, together with: 10 µM Mg2+", "scale": "reference: high Mg2+ state, higher = stronger signaling", "endpoint": "fold induction", "result": 10.3}
{"note": "A few entries again (series 1):"}
{"Strand": "CTAATCTATCTAAAAAGCGTGATTTTTCCCACGTTC", "fluorescence intensity [a.u.]": 659}
{"Strand": "TGTACGAAGCTATATAACGTGGTTATAGTAGTTAGG", "fluorescence intensity [a.u.]": 594}
